Results collected from several papers.
A part holds a random share of what one study measured. Positions count from the first letter of the parent shown.

Sample 1
Target: Ras GTPase-activating protein-binding protein 1, RRM domain (G3BP1, Homo sapiens, UniProt Q13283)
Chain of UniProt Q13283 (whole entry, looked up): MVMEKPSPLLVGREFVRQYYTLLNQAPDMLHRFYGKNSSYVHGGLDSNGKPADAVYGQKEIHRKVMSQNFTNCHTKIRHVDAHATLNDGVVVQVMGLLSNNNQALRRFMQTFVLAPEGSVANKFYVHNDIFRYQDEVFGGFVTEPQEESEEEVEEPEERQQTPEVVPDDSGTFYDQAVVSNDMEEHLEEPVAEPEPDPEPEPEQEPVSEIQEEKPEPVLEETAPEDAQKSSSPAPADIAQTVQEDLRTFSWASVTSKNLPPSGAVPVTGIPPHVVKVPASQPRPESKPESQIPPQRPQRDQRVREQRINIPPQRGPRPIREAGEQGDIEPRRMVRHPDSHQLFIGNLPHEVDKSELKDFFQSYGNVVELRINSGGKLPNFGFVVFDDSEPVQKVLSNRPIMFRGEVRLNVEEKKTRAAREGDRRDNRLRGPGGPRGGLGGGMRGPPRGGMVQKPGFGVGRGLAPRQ
Method: RNA Bind-n-Seq
Molecule type: RNA
Medium: in vitro
Tested at: 1 µM
Setting: whole 134-nt RNA, ends assumed
Added: 150 mM KCl
Relative to: input library
Reading: higher = stronger binding
`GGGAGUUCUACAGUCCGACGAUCUAUCCCCUAUGAGGCACCACGUAAGACCUCCUGCCCUUAGCUCUCUUGCUCACCACCCAAGAACCUCAGGACAGAAGCGAGAGCCCAUUGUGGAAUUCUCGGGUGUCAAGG` has a log2 enrichment of -0.156.
`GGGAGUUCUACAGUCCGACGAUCGUCCUGUGCUACACAUCGUAUGUACCGAAUCGGGAAAAAAGGGAAAAAAGGAAAAAAGGAAAGUAUUAUGUUACGCCGUUCGGAUCUGCAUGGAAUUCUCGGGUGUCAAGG` has a log2 enrichment of 0.131.
`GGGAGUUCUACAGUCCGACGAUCAAGUCCUGUGCUACACAUCGUAUGUACCGAAUCGGGUUUUUGGGAAAAAGGGAGGGAAAGUAUUAUGUUACGCCGUUCGGAUCUGCACUUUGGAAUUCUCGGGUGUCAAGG` has a log2 enrichment of 0.706.
With `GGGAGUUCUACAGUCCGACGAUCGUCCUGUGCUACACAUCGUAUGUACCGAAUCGGGCCCCCGGGCCCCCGGCCCCCGGGGAAAGUAUUAUGUUACGCCGUUCGGAUCUGCACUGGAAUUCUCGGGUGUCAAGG` the log2 enrichment was -0.663.
`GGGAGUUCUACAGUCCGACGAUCAAGUCCUGUGCUACACAUCGUAUGUACCGAAUCGGGUUUGGGGUUUGGGGUUUGGGGAAAGUAUUAUGUUACGCCGUUCGGAUCUGCACUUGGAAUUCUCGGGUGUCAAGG` gave a log2 enrichment of 0.655.
With `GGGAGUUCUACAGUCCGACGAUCCUGUGCUACACAUCGUAUGUACCGAAUCGGGGUUUUUUUGGGGUUUUUUUGGGUUUUUUUGGAAAGUAUUAUGUUACGCCGUUCGGAUCUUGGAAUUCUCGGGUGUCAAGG` the log2 enrichment was -0.152.
For `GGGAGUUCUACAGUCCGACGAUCUUGUGUUCGUGAAUUGUAACUCCAGAAGCAAUGCCUGUACAAGCUCCACAAUGGACGGAUUUCCUCUCCUGCCCAAUUUGCACUCAGACUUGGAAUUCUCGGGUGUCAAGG`, the log2 enrichment was 0.0326.
For `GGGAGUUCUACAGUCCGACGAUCAAGUCCUGUGCUACACAUCGUAUGUACCGAAUCGGGGUUUUGGGUUUUGGUUUUGGGAAAGUAUUAUGUUACGCCGUUCGGAUCUGCACUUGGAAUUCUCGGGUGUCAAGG`, the log2 enrichment was -0.309.
`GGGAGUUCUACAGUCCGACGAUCCCUGUGCUACACAUCGUAUGUACCGAAUCGGGAAAAAAGGGAAAAAAGGGGAAAAAAGGGGAAAGUAUUAUGUUACGCCGUUCGGAUCUGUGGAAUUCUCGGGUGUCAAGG` has a log2 enrichment of 0.116.
The log2 enrichment of `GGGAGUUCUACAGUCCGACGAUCCUGUGCUACACAUCGUAUGUACCGAAUCGGGGAAAAAAGGGGAAAAAAGGGAAAAAAGGGGAAAGUAUUAUGUUACGCCGUUCGGAUCUGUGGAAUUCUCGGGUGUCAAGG` is reported as -0.0975.
`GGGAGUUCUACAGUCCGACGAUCUCAAGUCCUGUGCUACACAUCGUAUGUACCGAAUCGGAAAAAAAGGAAAGGAGGAAAGUAUUAUGUUACGCCGUUCGGAUCUGCACUUCCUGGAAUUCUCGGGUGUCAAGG` has a log2 enrichment of -0.0761.
With `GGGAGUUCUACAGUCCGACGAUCCACAGACAACACGCACCCACACAGACACAGAGGGAAGGGGUUGGGAUGGGGACAGGAAACACAGCAGGGCGGGGUAGGACCCCAGCCCCUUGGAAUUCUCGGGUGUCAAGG` the log2 enrichment was -0.0613.
`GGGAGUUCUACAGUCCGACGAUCCUCAAGUCCUGUGCUACACAUCGUAUGUACCGAAUCGGAGGAAAGGUUUUUGGAAAGUAUUAUGUUACGCCGUUCGGAUCUGCACUUCCAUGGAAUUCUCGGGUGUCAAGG` gave a log2 enrichment of -0.226.
`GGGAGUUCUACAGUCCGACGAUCUCCUGUGCUACACAUCGUAUGUACCGAAUCGGGGAAAGGGGUUUUUGGGGUUUUUGGGGAAAGUAUUAUGUUACGCCGUUCGGAUCUGCAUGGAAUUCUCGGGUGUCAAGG` has a log2 enrichment of 1.1.

Sample 2
Target: Interferon regulatory factor 7, full length, phosphomimetic (IRF7, Homo sapiens, UniProt Q92985, residues 1-503, S101K/S471D/S472D/S475D/S476D/S477D/S483D/S484D/S487D)
Method: protein-binding microarray
Molecule type: double-stranded DNA, one strand shown
Medium: in vitro
Tested at: 250 nM
Setting: 60-bp whole probe
Added: salmon DNA 0.4 mg/ml
Relative to: random background probes
Reading: higher = stronger binding
Shared flanks, not repeated: GCCTAGCAC … GTCTTGATTCGCTTGACGCTGCTG
Residues (chain): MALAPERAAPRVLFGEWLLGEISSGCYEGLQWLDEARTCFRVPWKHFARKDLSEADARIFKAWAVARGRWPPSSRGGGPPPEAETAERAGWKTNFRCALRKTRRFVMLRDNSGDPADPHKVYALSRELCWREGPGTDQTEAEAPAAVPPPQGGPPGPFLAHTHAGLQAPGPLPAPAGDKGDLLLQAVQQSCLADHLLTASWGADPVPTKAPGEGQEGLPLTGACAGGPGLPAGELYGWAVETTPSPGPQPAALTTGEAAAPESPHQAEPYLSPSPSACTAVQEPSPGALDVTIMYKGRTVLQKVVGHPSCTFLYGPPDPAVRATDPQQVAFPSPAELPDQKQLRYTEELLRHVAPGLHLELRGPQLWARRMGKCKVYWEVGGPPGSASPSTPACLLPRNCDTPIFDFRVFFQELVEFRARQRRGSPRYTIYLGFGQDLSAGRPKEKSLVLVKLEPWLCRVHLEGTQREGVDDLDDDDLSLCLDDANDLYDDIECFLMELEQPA
`TTAGGTTTCGGTTTCGGATAGTGCTAG` gave a log fluorescence of 14.9 z-score.
With `TTCGAACTGGGGTATCGATTAGTGCTA` the log fluorescence was 0.136 z-score.
With `TCAACACTAGTTTTTACACTGTGCTAG` the log fluorescence was 0.168 z-score.
`GACGATTTCAGTTCCAAGACGTGCTAG` has a log fluorescence of 0.645 z-score.
For `TTAGATAGCGGGTTTCGATTAGTGCTA`, the log fluorescence was 6.36 z-score.
The log fluorescence of `TCTGTTTTTGCTTTCTTTTTGTGCTAG` is reported as 2.5 z-score.
`TTAGGACTGCTTCTCCTATAGTGCTAG` has a log fluorescence of 0.847 z-score.
`GATTTCTTCCCTGTGAAAACGTGCTAG` gave a log fluorescence of 2.52 z-score.
`TTAGATCTCAGTCTCTATTAGTGCTAG` gave a log fluorescence of 0.278 z-score.
With `TTAGGTCTGGGTATCGGTTAGTGCTAG` the log fluorescence was 0.657 z-score.
`TCATTGGTTGAACATGAACTGTGCTAG` gave a log fluorescence of 0.138 z-score.
For `TTAGGTCTCCTACTGTTTTAGTGCTAG`, the log fluorescence was 0.0644 z-score.
The log fluorescence of `TTAGGACTGGACGCTGGGTTAGTGCTA` is reported as -0.717 z-score.
`TTAGGTATCGACACTGGCTTAGTGCTA` has a log fluorescence of -0.401 z-score.
The log fluorescence of `GACGGACTGGACTTACGGGACGTGCTA` is reported as -0.423 z-score.
`GACGGTTTCGACTATCGGTACGTGCTA` gave a log fluorescence of 5.46 z-score.
With `GACGATATCAGCCTCGAGACGTGCTAG` the log fluorescence was -0.22 z-score.
`TTAGGTATCGACTATCGGTTAGTGCTA` has a log fluorescence of 0.211 z-score.

Sample 3
Target: ABI1, truncated, D143A, DHFR fusion (Arabidopsis thaliana)
Method: DHFR PCA, deep sequencing
Medium: yeast
Setting: methotrexate growth selection, single substitutions
Added: (+)-ABA 0.11 µM
Relative to: wild-type fitted maximum
Reading: higher = stronger binding
Starting sequence: PYL1, truncated, DHFR fusion (Arabidopsis thaliana); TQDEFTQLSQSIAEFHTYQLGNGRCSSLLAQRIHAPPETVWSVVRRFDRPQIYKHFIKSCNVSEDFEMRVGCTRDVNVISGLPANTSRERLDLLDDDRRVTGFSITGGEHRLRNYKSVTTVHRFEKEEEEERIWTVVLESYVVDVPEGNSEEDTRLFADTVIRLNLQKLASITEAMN
Under “relative binding score”, `V100R` is recorded as -7.11%.
Under “relative binding score”, `G102L` is recorded as -3.81%.
For `K54Y`, “relative binding score” read -3.12%.
`H16P` — result for “relative binding score”: 1.64%.
`R123N` — result for “relative binding score”: 13.1%.
For `M176Y`, “relative binding score” read 7.79%.
For `I133N`, “relative binding score” read 43%.
`L94K`: “relative binding score” -8.21%.
`P36W`: “relative binding score” 2.35%.
`R163N` — result for “relative binding score”: -5.32%.
For `R24W`, “relative binding score” read -0.293%.
Under “relative binding score”, `L8F` is recorded as 39.7%.

Sample 4
Target: RNA binding protein fox-1 homolog 2, RRM domain, GST-SBP tag (RBFOX2, Homo sapiens, UniProt O43251-10, residues 100-194)
Method: RNA Bind-n-Seq
Molecule type: RNA
Medium: in vitro
Tested at: 365 nM
Setting: natural RNA segment, single round, ends assumed
Relative to: no-protein control
Reading: higher = stronger binding
Construct (chain): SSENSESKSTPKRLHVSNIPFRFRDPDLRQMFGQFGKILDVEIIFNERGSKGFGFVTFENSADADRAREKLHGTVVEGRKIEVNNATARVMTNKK
For `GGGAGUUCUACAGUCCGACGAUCGCCUCCCUUGCAGGUUUGCCAAGUAUCUGCUUCCUGUGGAAGCAAGACCAAAAGGAAACCAACCGAGUGGGGGUUUGGAGGAGUCGGAAGUAGCAUCUCCAGGCAAGCUGUGGAAUUCUCGGGUGCCAA`, “RBNS enrichment (R)” read 0.276.
`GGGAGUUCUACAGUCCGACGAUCCAGAUCUUCAGUCAUUGGGAAGAUGGAGAUACCACUGUAGGGGUGACACCGGGAGACCUAGGAGAUCCCUUCCUGCCCUCUUUCUCUUGGCCUCCGAUUCACUCCUGUCCUGGAAUUCUCGGGUGCCAA`: “RBNS enrichment (R)” 0.431.
Under “RBNS enrichment (R)”, `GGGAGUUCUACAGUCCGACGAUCUCUUGCAGGCUGCCUCUUUUAUAUUGGGUCUCUUGGCCCAACUGCUUCCUUCUUGUUAAUAAGGAGACCUGACGCACACAGCCAGUGGAUUCCCCUCCACCUCGGGAGGGUGGAAUUCUCGGGUGCCAA` is recorded as 0.261.
`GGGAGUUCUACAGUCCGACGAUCCCCAAGAGAGCUCAUUUAAUUGUGCUGUGACAAUGAAGAUUACUGGAAUGAAUUUUUGUCUUUUGUAUUUUAAUCACUUGAGUGAAUCAACUAUUAGCAAAUUCCAUUUGUGGAAUUCUCGGGUGCCAA` — result for “RBNS enrichment (R)”: 0.863.
For `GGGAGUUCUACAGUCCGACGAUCAAUAUUGAAAAGAUAAGACAAAUUAUAAAUAAGUUCUAAAACAUAAAUUUAAUUCAUCUCUGCAUAGUGAUUUUUGAAUUUGAUUCAAAGGGAAAUUAUUGCAGAAGAAUUGGAAUUCUCGGGUGCCAA`, “RBNS enrichment (R)” read 1.2.
Under “RBNS enrichment (R)”, `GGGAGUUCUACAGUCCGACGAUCGCCCCCUCAGGGAUGUGGGAAUCUCCCAGACUUGUUUCCUGUGCCCAUCAUCUCUGCCUUUGAGUGUGGGACUCCAGGCCAGCUCCUUUUCUGUGAAGCCCUUUGCCUGUUGGAAUUCUCGGGUGCCAA` is recorded as 0.968.
`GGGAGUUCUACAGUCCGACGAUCUUUUCUAUUGUACUCUGCUUUAUCAAAGAAGUAAAACAUUUAAAUCGUACUACAGAAAUUAAGAUGUUGUCUUGCGAUCCUUAAUAAAUGAAUGAUUUCCCUUUAAUACGUGGAAUUCUCGGGUGCCAA`: “RBNS enrichment (R)” 1.11.
For `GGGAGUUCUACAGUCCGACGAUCGCUUUUUAAGAACUACUUUAAUUGAAAGAUAAGAACUUUGCUAUCUUAUGCAGUGUAGUGUUCCCUUUCUGAAGACCUCAUUGUAAGACAGCUUUAUGUGCAUAGUGCUCUGGAAUUCUCGGGUGCCAA`, “RBNS enrichment (R)” read 0.442.
`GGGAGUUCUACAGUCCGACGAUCGCCAAGGGAGGUGCCAAUGCUGGGCUUACCAUAGUCCAGGAAGAAUAUGAGGACUAGGGGCACACAAGAGUCUAGCUUCGUCUCCAGGACUCCCUUGGCUCAGAGUGUGGUGGAAUUCUCGGGUGCCAA`: “RBNS enrichment (R)” 0.669.
`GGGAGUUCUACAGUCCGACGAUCUUUCACAGAAAUAGUCCUUGUCAUUACAUUGUUCACUCAUGUGUUUGUACAUUUUUGUAUGUUAAUUUAUGAAUGAUUUUUUCAGUAAAAAAUACAUAUUCAAUAACCAAUGGAAUUCUCGGGUGCCAA` — result for “RBNS enrichment (R)”: 0.456.
For `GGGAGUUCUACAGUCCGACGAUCUGUUCUUUGUGGACUAUUUCAGACAACCAGGUUCCGACAGUCCAGCCCAGAACUUUUCCUUCUCAUUUUGGGUUUUCUCUUCUCCUGCUUUCCUGGGGAGAGAUUAAGCGUGGAAUUCUCGGGUGCCAA`, “RBNS enrichment (R)” read 0.366.
`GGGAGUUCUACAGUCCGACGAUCGUCAAAAACCUUUAUAUUCUGUUCUUAAUAAUGUUUGUGCCAACCUAUAUCCCAUGUAAGGGAUCUGGGGAGGAGGCAUGUGUCUACAACCAUACCUUUUUGCACUAUGGUGGAAUUCUCGGGUGCCAA`: “RBNS enrichment (R)” 1.53.
